# Results of several laboratories.
# Compare with care: the assays were run in different laboratories. ± marks the error that the study gave.
# B1: FIBH residues 1662-1810 (Bombyx mori); N-terminal Alexa Fluor 488; chain GAGAGSGAGAGSGAGAGSGAGAGSGAGAGYGAGYGAGAGAGYGAGAGSGAGSGAGAGSGAGAGSGAGAGSGAGAGSGAGAGSGAGAGSGAGAGSGAGSGSGAGAGSGAGAGSGAGAGYGAGVGAGYGVGYGAGAGAGYGAGAGSGAAS
# B2: RPRD1A 2-137 (Homo sapiens, UniProt Q96P16); chain SAFSEAALEKKLSELSNSQQSVQTLSLWLIHHRKHSRPIVTVWERELRKAKPNRKLTFLYLANDVIQNSKRKGPEFTKDFAPVIVEAFKHVSSETDESCKKHLGRVLSIWEERSVYENDVLEQLKQALYGDKKPRK
# B3: BBC3 (Homo sapiens, UniProt Q9BXH1); chain MARARQEGSSPEPVEGLARDGPRPFPLGRLVPSAVSCGLCEPGLAAAPAAPTLLPAAYLCAPTAPPAVTAALGGSRWPGGPRSRPRGPRPDGPQPSLSLAEQHLESPVPSAPGALAGGPTQAAPGVRGEEEQWAREIGAQLRRMADDLNAQYERRRQEEQQRHRPSPWRVLYNLIMGLLPLPRGHRAPEMEPN
# B4: SRS2 1107-1174 F1153A (Saccharomyces cerevisiae, UniProt P12954); N-terminal cysteine BODIPY-FL; chain CHNPDDTTVDNRPIISNAKFLADAAMKKTQKFSKKVKNEPASSQMDIASQLSRAKKKSKLNNGEIIVID
# B5: NRP1 (Arabidopsis thaliana); chain MVADKSKKSKIEEKGEEENLEQIDAELVLSIEKLQEIQDDLEKINEKASDEVLEVEQKYNVIRKPVYDKRNEVIQSIPGFWMTAFLSHPALGDLLTEEDQKIFKYLNSLEVEDAKDVKSGYSITFHFTSNPFFEDAKLTKTFTFLEEGTTKITATPIKWKEGKGLPNGVNHDDKKGNKRALPEESFFTWFTDAQHKEDAGDEIHDEVADIIKEDLWSNPLTYFNNDADEEDFDGDDDGDEEGEEDDDDEEEEDGEE
# B6: IL18 37-193 C74S/C104S/C112S/A162C/C163S/I185C (Homo sapiens, UniProt Q14116); chain YFGKLESKLSVIRNLNDQVLFIDQGNRPLFEDMTDSDSRDNAPRTIFIISMYKDSQPRGMAVTISVKSEKISTLSSENKIISFKEMNPPDNIKDTKSDIIFFQRSVPGHDNKMQFESSSYEGYFLCSEKERDLFKLILKKEDELGDRSCMFTVQNED
# B7: NFKBIA 67-287 (Homo sapiens, UniProt P25963); sequence looked up; chain KQQLTEDGDSFLHLAIIHEEKALTMEVIRQVKGDLAFLNFQNNLQQTPLHLAVITNQPEIAEALLGAGCDPELRDFRGNTPLHLACEQGCLASVGVLTQSCTTPHLHSILKATNYNGHTCLHLASIHGYLGIVELLVSLGADVNAQEPCNGRTALHLAVDLQNPDLVSLLLKCGADVNRVTYQGYSPYQLTWGRPSTRIQQQLGQLTLENLQMLPESEDEE
# B8: CDC48A 1-190 (Arabidopsis thaliana, UniProt P54609); chain MSTPAESSDSKSKKDFSTAILERKKSPNRLVVDEAINDDNSVVSLHPATMEKLQLFRGDTILIKGKKRKDTVCIALADETCEEPKIRMNKVVRSNLRVRLGDVISVHQCPDVKYGKRVHILPVDDTVEGVTGNLFDAYLKPYFLEAYRPVRKGDLFLVRGGMRSVEFKVIETDPAEYCVVAPDTEIFCEG
# B9: UBQLN2 450-624 S624C (UniProt Q9UHD9); Alexa Fluor 488 at C624; chain RAMQALMQIQQGLQTLATEAPGLIPSFTPGVGVGVLGTAIGPVGPVTPIGPIGPIVPFTPIGPIGPIGPTGPAAPPGSTGSGGPTGPTVSSAAPSETTSPTSESGPNQQFIQQMVQALAGANAPQLPNPEVRFQQQLEQLNAMGFLNREANLQALIATGGDINAAIERLLGSQPC
# Chain of UniProt Q71LX4 (whole entry, looked up): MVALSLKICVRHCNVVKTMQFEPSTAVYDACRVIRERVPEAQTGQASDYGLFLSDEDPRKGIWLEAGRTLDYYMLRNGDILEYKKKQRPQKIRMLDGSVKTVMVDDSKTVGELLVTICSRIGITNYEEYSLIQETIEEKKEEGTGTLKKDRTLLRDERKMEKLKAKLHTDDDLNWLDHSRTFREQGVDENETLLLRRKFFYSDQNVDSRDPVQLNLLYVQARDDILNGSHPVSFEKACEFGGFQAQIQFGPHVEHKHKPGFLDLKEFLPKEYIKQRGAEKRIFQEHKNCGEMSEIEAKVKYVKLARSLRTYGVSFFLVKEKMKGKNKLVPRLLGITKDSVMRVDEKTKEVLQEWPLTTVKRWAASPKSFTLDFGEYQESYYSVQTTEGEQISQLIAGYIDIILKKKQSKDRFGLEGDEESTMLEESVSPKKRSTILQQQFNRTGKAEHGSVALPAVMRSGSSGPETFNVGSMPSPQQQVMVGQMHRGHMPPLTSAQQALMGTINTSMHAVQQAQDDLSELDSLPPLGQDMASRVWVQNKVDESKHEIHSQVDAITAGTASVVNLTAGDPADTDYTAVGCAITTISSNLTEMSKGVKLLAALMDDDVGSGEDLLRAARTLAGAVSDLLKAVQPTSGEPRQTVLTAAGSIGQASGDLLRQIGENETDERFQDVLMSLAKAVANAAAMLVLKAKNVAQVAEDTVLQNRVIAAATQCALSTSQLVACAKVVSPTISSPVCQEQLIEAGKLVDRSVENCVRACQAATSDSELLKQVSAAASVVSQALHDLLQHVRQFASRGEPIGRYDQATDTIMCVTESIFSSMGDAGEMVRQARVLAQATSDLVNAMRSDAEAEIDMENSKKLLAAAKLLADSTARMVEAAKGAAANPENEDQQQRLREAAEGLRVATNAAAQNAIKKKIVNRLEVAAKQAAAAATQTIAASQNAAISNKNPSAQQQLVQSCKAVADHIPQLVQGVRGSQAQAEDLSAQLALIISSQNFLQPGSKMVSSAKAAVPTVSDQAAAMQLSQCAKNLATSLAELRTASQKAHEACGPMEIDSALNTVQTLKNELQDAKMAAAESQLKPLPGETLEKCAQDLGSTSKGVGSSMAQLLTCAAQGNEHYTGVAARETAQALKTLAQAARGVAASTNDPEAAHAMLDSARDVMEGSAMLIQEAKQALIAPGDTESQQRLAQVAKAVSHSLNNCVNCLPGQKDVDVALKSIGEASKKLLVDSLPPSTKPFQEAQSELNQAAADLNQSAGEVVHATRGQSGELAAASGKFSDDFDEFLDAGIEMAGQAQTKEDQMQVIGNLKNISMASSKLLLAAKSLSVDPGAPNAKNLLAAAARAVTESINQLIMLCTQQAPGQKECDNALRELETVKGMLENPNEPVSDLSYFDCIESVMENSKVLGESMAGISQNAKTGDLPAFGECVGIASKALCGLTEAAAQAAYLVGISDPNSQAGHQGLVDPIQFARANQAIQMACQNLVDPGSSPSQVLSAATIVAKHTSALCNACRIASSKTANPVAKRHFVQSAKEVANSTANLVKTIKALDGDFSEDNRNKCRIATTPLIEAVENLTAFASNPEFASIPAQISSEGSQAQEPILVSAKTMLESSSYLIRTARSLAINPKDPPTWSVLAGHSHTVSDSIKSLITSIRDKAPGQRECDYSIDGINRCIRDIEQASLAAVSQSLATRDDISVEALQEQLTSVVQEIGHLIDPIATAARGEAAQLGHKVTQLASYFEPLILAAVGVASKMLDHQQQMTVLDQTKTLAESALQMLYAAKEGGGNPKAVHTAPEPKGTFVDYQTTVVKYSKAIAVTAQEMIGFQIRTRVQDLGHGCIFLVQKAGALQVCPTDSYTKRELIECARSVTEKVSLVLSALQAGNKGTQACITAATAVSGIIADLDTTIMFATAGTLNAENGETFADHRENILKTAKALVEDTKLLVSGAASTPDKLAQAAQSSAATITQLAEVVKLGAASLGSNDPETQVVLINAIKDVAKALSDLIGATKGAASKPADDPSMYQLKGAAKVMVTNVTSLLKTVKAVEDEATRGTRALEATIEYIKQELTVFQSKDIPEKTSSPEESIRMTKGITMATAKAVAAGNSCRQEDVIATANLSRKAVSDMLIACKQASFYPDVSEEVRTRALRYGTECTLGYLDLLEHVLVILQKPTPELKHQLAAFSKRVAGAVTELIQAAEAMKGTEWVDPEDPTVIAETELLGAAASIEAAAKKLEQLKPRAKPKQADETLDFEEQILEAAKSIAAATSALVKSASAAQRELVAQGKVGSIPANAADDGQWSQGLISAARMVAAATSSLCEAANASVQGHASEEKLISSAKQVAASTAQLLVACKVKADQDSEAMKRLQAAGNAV
# Chain of UniProt P00742 (whole entry, looked up): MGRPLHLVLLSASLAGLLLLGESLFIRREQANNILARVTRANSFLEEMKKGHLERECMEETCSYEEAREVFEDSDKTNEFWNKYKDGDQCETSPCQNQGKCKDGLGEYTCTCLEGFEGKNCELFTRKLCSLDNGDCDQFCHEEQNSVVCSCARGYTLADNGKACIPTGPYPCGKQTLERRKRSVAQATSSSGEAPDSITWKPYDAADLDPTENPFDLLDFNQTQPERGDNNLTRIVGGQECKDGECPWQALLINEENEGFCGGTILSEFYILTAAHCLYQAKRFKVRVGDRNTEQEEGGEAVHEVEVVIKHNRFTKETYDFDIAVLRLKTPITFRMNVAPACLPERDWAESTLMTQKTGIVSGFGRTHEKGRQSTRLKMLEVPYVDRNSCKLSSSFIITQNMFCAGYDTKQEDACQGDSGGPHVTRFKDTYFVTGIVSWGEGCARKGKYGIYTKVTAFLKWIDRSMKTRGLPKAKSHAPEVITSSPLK
# Chain of UniProt Q06671 (whole entry, looked up): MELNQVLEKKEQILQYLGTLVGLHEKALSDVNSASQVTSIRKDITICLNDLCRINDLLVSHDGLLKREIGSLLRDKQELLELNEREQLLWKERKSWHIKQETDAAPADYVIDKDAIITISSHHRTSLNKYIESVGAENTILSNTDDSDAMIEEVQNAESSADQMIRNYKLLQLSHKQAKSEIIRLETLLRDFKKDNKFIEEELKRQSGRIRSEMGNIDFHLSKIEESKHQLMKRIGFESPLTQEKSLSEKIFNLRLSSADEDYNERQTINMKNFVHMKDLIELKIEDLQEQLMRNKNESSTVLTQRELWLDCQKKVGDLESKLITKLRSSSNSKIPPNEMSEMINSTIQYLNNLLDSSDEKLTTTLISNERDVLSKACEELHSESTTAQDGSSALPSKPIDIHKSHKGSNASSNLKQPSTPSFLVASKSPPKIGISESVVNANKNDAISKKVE
# Chain of UniProt P02786 (whole entry, looked up): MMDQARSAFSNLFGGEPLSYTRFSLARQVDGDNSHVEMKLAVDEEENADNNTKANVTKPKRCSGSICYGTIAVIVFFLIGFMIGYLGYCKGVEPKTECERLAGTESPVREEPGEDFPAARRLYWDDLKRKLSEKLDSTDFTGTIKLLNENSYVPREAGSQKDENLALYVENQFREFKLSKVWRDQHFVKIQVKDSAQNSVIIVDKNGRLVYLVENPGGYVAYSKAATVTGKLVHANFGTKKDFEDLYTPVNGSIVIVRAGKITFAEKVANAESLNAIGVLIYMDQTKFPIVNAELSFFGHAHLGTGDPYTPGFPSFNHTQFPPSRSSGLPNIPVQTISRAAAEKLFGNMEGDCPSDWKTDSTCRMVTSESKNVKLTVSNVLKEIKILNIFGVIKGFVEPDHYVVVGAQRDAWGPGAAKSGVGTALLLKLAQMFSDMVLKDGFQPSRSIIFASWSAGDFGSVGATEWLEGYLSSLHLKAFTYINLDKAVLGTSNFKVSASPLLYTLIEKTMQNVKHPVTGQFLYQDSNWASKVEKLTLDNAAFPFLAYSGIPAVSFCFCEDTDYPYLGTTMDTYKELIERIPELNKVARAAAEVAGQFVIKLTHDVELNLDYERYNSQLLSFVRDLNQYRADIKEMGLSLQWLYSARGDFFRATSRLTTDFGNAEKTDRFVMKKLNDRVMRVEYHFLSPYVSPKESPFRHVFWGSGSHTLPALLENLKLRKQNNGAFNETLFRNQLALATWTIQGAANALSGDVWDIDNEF
# Chain of UniProt Q8IXW5 (whole entry, looked up): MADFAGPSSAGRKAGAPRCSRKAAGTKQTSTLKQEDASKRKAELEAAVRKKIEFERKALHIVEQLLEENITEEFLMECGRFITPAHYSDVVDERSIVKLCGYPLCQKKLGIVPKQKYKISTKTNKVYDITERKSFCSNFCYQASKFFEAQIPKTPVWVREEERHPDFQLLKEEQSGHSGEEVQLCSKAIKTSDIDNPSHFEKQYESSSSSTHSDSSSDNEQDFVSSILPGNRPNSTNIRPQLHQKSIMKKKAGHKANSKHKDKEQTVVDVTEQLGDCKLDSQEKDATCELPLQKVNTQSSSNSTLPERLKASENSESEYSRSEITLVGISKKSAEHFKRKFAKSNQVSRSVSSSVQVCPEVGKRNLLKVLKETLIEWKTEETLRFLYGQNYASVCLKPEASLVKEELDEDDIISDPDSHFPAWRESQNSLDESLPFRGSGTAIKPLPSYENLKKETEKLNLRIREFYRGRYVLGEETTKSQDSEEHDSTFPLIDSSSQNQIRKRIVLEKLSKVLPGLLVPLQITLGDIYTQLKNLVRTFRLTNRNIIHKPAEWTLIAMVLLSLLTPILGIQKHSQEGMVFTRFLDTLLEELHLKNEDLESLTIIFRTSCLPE
# Chain of UniProt P70345 (whole entry, looked up): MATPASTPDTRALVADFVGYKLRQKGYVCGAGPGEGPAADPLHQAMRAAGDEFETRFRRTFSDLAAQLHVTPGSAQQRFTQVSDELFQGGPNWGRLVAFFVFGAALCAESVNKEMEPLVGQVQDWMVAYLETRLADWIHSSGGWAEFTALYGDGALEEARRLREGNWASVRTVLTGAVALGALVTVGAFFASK
# Chain of UniProt Q5BJF2 (whole entry, looked up): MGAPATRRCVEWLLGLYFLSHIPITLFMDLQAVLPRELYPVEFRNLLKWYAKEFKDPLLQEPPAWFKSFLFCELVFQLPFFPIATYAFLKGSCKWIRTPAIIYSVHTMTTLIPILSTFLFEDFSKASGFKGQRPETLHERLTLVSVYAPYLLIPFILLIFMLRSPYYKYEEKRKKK
Substance,partner,test,system,setting,Kd [µM]
"KLLMIIHDRREFAKFEKEKMNAKADTQENPIYKSPINNFKNPNYGRKAGL (ITGB1 752-801 W775A (Homo sapiens, UniProt P05556-5); sequence looked up)","Tln2 312-408 (Mus musculus, UniProt Q71LX4)",NMR titration,,,258
"GRGDLGRLKK (TGFB3 260-269; aminocaproic acid, FITC label)","integrin αVβ6 full length, on K562 cells (Homo sapiens)",flow cytometry,peptide,,0.081
ARTKQTARKS (histone H3 1-10; K4me3),"ING1 163-234 E202A (Arabidopsis thaliana, UniProt Q9LIQ6)",ITC,peptide,,3.45 ± 0.09
Homer EVH1 domain (Capsaspora owczarzaki),RAX peptide (Homo sapiens),BLI,,,35.8
"MERDEYQLPNSHGKNTFLSRIFGLQSDEVNPSLNSQEMSNFPLPDIER (ATG9 1-48 (Saccharomyces cerevisiae, UniProt Q12142); sequence looked up)","ATG23 full-length, dimer (Saccharomyces cerevisiae, UniProt Q06671)",BLI,,,1.23
B1 (FIBH residues 1662-1810),"collagen I (Homo sapiens, UniProt P02452)",FCS,,,0.0272 ± 0.00063
B2 (RPRD1A 2-137),"RPAP2 (Homo sapiens, UniProt Q8IXW5)",ITC,,25 °C,> 1000
B3 (BBC3),"Bcl2l2 (Mus musculus, UniProt P70345)",FRET or BRET,,not purified,5
"F10 factor Xa (Homo sapiens, UniProt P00742)","factor Va 29-334 R506Q (Homo sapiens, UniProt P12259)","thrombin generation, prothrombinase activity titration",,,0.00115 ± 0.0002
PARRSEELVAEAHNLCTLLENAIQDTVREQDQSFTALDWSWLQTE (IKBKB 701-745 K703R/K704R (UniProt O14920); N-terminal FITC; sequence looked up),"IKBKG 1-196 (Homo sapiens, UniProt Q9Y6K9-1)",fluorescence polarisation,peptide,,0.018
B4 (SRS2 1107-1174 F1153A),"POL30 1-258 K127G (Saccharomyces cerevisiae, UniProt P15873)",fluorescence polarisation,,apparent,1.48
GCVRLHESCLGQQVPCCDPAATCYCTGRGDEKLRCYCR (designed peptide AgRP scaffold),ITGA2B/ITGB3 K562 cells,flow cytometry,"designed binder, U87MG",,> 0.1
B5 (NRP1),H3 fragment (Xenopus laevis),SPR,,,57.9
Histone H3.1 fragment (Homo sapiens),"YEATS4 19-159 (Homo sapiens, UniProt O95619)",ITC,,added: histone H3 peptide,> 1000
"IgA1, galactose-deficient (Homo sapiens)","TFRC 101-760 (Homo sapiens, UniProt P02786)",SPR,,,1.09
"TNF (Homo sapiens, UniProt P01375)","golimumab IgG, PBS-stressed 14 d, Asn deamidation/succinimide, HC Asn43, LC Asn93, Fc",SPR,,,7.3e-06
TIMP1 N-terminal domain,"MMP12 catalytic domain 106-263 A252Q/T215V/A173P/A167E/V161I/M156E/Y132K/Y113D (Homo sapiens, UniProt P39900)",BLI,,,0.5
B6,"IL18BP (Homo sapiens, UniProt O95998)",SPR,,,6.5e-06
B7 (NFKBIA 67-287),RelA/NFKB1 190-321,ITC,,,< 0.001
HTN1 fragment alanine substitutions at 20-24,"TMEM97 (Homo sapiens, UniProt Q5BJF2)",SPR,,,22.7
YLPTITGVGHLWHPLC (engineered peptide),VPS35/VPS26A/VPS29 retromer complex (Homo sapiens),SPR,peptide,,0.0052
B8 (CDC48A 1-190),"PUX7 (Arabidopsis thaliana, UniProt Q94JZ8)",BLI,,25 °C,0.0205 ± 0.0002
B9 (UBQLN2 450-624 S624C),ubiquitin (UniProt P0CG48),fluorescence polarisation,,,3.36

# For quick reference, copied from above:
Substance,partner,test,system,setting,Kd [µM]
HTN1 fragment alanine substitutions at 20-24,"TMEM97 (Homo sapiens, UniProt Q5BJF2)",SPR,,,22.7
B1 (FIBH residues 1662-1810),"collagen I (Homo sapiens, UniProt P02452)",FCS,,,0.0272 ± 0.00063
YLPTITGVGHLWHPLC (engineered peptide),VPS35/VPS26A/VPS29 retromer complex (Homo sapiens),SPR,peptide,,0.0052
